Measurements from different studies.
Each line is one published result; not all experiments were run side by side. Several values in a cell are separate wells, animals, samples, runs or records. Numbers after ± are the reported error.

Structure (SMILES) | test | system | setting | how to read | quantity | value
C#Cc1cccc(Nc2ncnc3cc(OCCOC)c(OCCOC)cc23)c1 | – | human, plasma | oral, 100 mg, day 1 | – | V/F | 174 ± 79 L
Cc1nc(-c2ccc(OCC(C)C)c(C#N)c2)sc1C(=O)O | – | healthy Chinese subjects | oral, 40 mg | – | dizziness incidence | 2.6%
Cc1cc(Nc2ccc(S(F)(F)(F)(F)F)cc2)n2nc(C(C)(F)F)nc2n1 | – | Plasmodium vivax malaria patients | oral, 800 mg | – | adverse event Nausea | 0%
CCN1CCN(Cc2ccc(NC(=O)c3ccc(C)c(NC(=O)c4cncc(-c5cccs5)c4)c3)cc2C(F)(F)F)CC1 | – | C57BL/6 mouse, plasma | intraperitoneal, 30 mg/kg, 0.25 to 8.0 h, single dose | – | AUC/dose | 0.11 kg·µg·h/mL/mg
Cc1noc(C)c1Cn1cc(N2C(=O)CN(Cc3cccc(O)c3)C2=O)cn1 | – | pooled human liver microsomes | 10 µM, 120 min, pH 7.4 | – | remaining parent | 121 % peak area
CN(c1ccc(F)cc1)c1c(-c2ccc(F)cn2)nc2ccccn12 | – | peritoneal macrophages, Swiss mice | 5 days, 5% fetal calf serum | – | CC50 | > 63.1 µM
CC(C)(C(=O)N1CCOc2c(C#N)cncc2C1)C(F)F | – | healthy humans, both sexes, plasma | oral, 40 mg single dose, 2-fold dose increase | relative to: 40 mg over 20 mg | AUClast dose proportionality ratio | 2.16
C=CC(=O)Nc1cc(Nc2nccc(-c3cn(C)c4ccccc34)n2)c(OC)cc1N(C)CCN(C)C | storage stability | human plasma | 10 d, -80 °C, LLOQ level | – | recovery | 92.9%
N#Cc1ccc2c(c1)[C@H]1CCCN(C(=O)c3ccc4[nH]cnc4c3)[C@H]1C2 | – | human | 40 mg, day 7 | – | minimum ACTH level | 3.5 pmol/L
COc1ccc(C[C@@H](C)[C@@H](C)Cc2ccc(OC)c(OC)c2)cc1OC | – | beagle dog female, plasma | oral, 100 mg/kg/day, day 28 | – | AUC(0-t) | 11300 ± 1920 ng·h/mL
COc1ccnc(C(N)=O)c1O | aerobic soil incubation | soil | worst-case terminal value, for exposure modelling | – | DT50 | 114 days
COc1ccc(CNc2nc(-c3ccc(C(=O)O)cc3)nc3sc4ccccc4c23)cc1Cl | – | NSG mice | dose not given, day 2 | – | body weight | 21.3 g and 20.5 g and 19 g and 18.2 g
CC[C@H](C)[C@H](NC(=O)[C@H](Cc1ccccc1)NC(=O)[C@H](CCC(=O)O)NC(=O)[C@H](CCCCNC(=O)COCCOCCNC(=O)COCCOCCNC(=O)CC[C@H](NC(=O)CCCCCCCCCCCCCCCCC(=O)O)C(=O)O)NC(=O)[C@H](C)NC(=O)[C@H](C)NC(=O)[C@H](CCC(N)=O)NC(=O)CNC(=O)[C@H](CCC(=O)O)NC(=O)[C@H](CC(C)C)NC(=O)[C@H](Cc1ccc(O)cc1)NC(=O)[C@H](CO)NC(=O)[C@H](CO)NC(=O)[C@@H](NC(=O)[C@H](CC(=O)O)NC(=O)[C@H](CO)NC(=O)[C@@H](NC(=O)[C@H](Cc1ccccc1)NC(=O)[C@@H](NC(=O)CNC(=O)[C@H](CCC(=O)O)NC(=O)C(C)(C)NC(=O)[C@@H](N)Cc1cnc[nH]1)[C@@H](C)O)[C@@H](C)O)C(C)C)C(=O)N[C@@H](C)C(=O)N[C@@H](Cc1c[nH]c2ccccc12)C(=O)N[C@@H](CC(C)C)C(=O)N[C@H](C(=O)N[C@@H](CCCNC(=N)N)C(=O)NCC(=O)N[C@@H](CCCNC(=N)N)C(=O)NCC(=O)O)C(C)C | 12-lead Holter ECG | healthy humans | subcutaneous, 1.5 mg once weekly, 25 h, steady state | relative to: placebo | QTcB change from baseline | 10.4 ms
C[C@H]1Oc2cc(cnc2N)-c2c(nn(C)c2C#N)CN(C)C(=O)c2ccc(F)cc21 | – | human patients, plasma | oral, dose not given, cycle 2 day 1, mean, added: avelumab | – | AUClast | 5460 ng·h/mL
COc1ccc(/C=N/NC(=O)Cn2c(-c3ccc(S(C)(=O)=O)cc3)nc3cc(C)ccc32)cc1 | – | rat, stomach | concentration not given, 4 h | relative to: indomethacin | ulcer index | 34.6%
O=C1NCCc2nc(OCc3cccc(F)c3)ccc21 | modified Irwin test | Sprague-Dawley rat, male | oral, 100 mg/kg, 4 h | higher = stronger change | motor activity score | 0.8
N[C@@H]1c2ccccc2OC12CCN(c1cnc3c(N4CCCc5ncccc54)n[nH]c3n1)CC2 | – | advanced metastatic solid tumour patients, plasma | oral, 10 mg once daily, cycle 1 day 15, geometric mean | – | AUC(0-tau) | 1270 ng·h/mL
Cc1c(C(=O)O)ccc2c3n(nc12)[C@@H]1[C@H](C3)N(CC2CC2)[C@@]2(C(=O)Nc3cc(Cl)ccc32)[C@H]1c1cccc(Cl)c1F | – | female BALB/c nude mice, SJSA-1 xenograft, plasma | oral, 1 mg/kg twice daily, 31 h | – | plasma concentration | 284 nM
Cn1ncnc1[C@H]1c2n[nH]c(=O)c3cc(F)cc(c23)N[C@@H]1c1ccc(F)cc1 | – | human patients, plasma | oral, 400 µg/m2 twice daily day 1, day 5, dose level DL2, median, added: temozolomide 20 mg/m2 daily days 2-6 | – | CL/F at steady state | 3.1 L/h/m2
Cc1cc(NC2CCN(C(=O)OC3CCN(C(=O)/C=C/CN(C)C)C3)CC2)n2ncc(C(C)C)c2n1 (centres unmarked) | Phase I dose escalation CTCAE v4.0, refers to: urinary tract infection | patients with advanced solid tumours | dose not given, QD dosing grade 3 or higher | – | patients with adverse event | 0%
CCc1cc(C(=O)NC)c2nccc(N3CCc4c(cc(Cn5ccnc5)cc4-c4cn(C)nc4C(F)(F)F)C3=O)c2c1 | – | Sprague Dawley rat | oral, 50 mg/kg once daily, 7 days | relative to: vehicle | heart weight change | -0.45%
CCc1c(-c2ccccc2)c(-c2ccccc2)nn1-c1ccccc1-c1cccc(OCC(=O)O)c1 | – | female Sprague-Dawley rat, ovary | oral, 10 mg/kg, 8 h | – | concentration | 197 ng/g

Structure (SMILES) | test | system | setting | how to read | quantity | value
COc1ccnc(C(=O)N[C@H]2COC(=O)[C@H](Cc3ccccc3)[C@@H](O)[C@H](C)OC2=O)c1O | aerobic dark soil incubation | sandy loam soil | 20 °C, modelling endpoint | – | DT50 | 86.1 days
OCc1nc2ccc(NCc3ccc(C(F)(F)F)cc3)cc2[nH]1 | – | Balb/c mouse, male, liver | intravenous, 1 mg/kg, 6 h | relative to: tissue over plasma | tissue/plasma ratio | 11.5 ± 3.7
CCOc1c([C@H](C)n2nc(C)c3c(N)ncnc32)cc(Cl)c(F)c1[C@@H]1CNC(=O)C1 | refers to: QTcF ≤450 ms | previously treated B-cell malignancy | oral, 10 mg once daily, baseline QTcF ≤450 ms | – | ECG observations | 100%
C[C@@H]1CCO[C@H]2Cn3cc(C(=O)NCc4ccc(F)cc4F)c(=O)c(O)c3C(=O)N12 | – | human paediatric patients, weight sample B to under sample C kg, plasma | oral, 30 mg dispersible tablet, 24 h, steady state, geometric mean, population PK post-hoc, N 5 | – | trough concentration (C24) | 1100 ng/mL
COCc1cc(C(=O)Nc2cc([C@H]3CC[C@@H](OC(=O)NC(C)C)C3)[nH]n2)n(C)n1 | – | OVCAR-3 xenograft, NOD/SCID gamma mice, plasma | oral, 25 twice daily, tumour growth inhibition study | – | Tmax | 7.5 h
CC(C)(C)NCC(O)c1ccc(O)c(CO)c1 (centres unmarked) | equilibrium dialysis | rat, lung homogenate | – | – | fraction unbound | 1
NC[C@@]1(CC(=O)O)[C@@H]2CC[C@H]3C[C@@H]2[C@@H]1C3 | – | humans with normal renal function, urine | oral, 20 mg single dose | – | cumulative urinary excretion | 14 ± 1.21 mg
C[C@@H](N)C1CCN(S(=O)(=O)c2cccc3cnccc23)CC1 | – | healthy volunteers | 25 mg and 250 mg combined, fasted | – | discontinuations due to TEAEs | 0%
CC#CC(=O)N1CC[C@@H](n2c(=O)n(-c3ccc(Oc4ccccc4)cc3)c3c(N)ncnc32)C1 | – | human, fasting, plasma | oral, 480 mg once daily, cycle 1 day 1 | – | AUC(0-24h) | 8500 ± 1700 ng·h/mL
O=C(O)CCC(=O)O.[2H]C([2H])([2H])Oc1cc(C)c2[nH]ccc2c1CN1CC[C@@H](C2CC2)C[C@H]1c1ccc(C(=O)O)cc1 | – | healthy Chinese subjects | 400 mg, single ascending dose | – | TEAE proteinuria | 0%
CCNC(=O)[C@@H]1CCCN1C(=O)[C@H](CCCNC(=N)N)NC(=O)[C@H](CC(C)C)NC(=O)[C@@H](CC(C)C)NC(=O)[C@H](Cc1ccc(O)cc1)NC(=O)[C@H](CO)NC(=O)[C@H](Cc1c[nH]c2ccccc12)NC(=O)[C@H](Cc1c[nH]cn1)NC(=O)[C@@H]1CCC(=O)N1 | – | healthy female volunteers | dose not given, all treatment groups combined | – | nausea incidence | 43%
CNc1ccc(-c2nc3ccc(O)cc3s2)cc1 [carbon-11 labelled] | microPET/CT imaging | B6SJL mouse, normal, brain | intravenous, 15 min | – | SUV | 0.266 ± 0.088
O=C(c1cccnc1-c1ccncc1)N1CCC(O)(Cc2ccccc2)CC1 | – | healthy Japanese adults | oral, dose not given | – | participants with serious adverse events | 0%
Cn1cncc1-c1c(F)cncc1NC(=O)c1c(N)nn2cc(F)cnc12 | – | patients, advanced solid tumours | oral, 130 mg once daily | relative to: patients | grade ≥1 adverse events | 71.4%
CCN1/C(=C/C(C)=O)Sc2ccc(F)cc21 | – | cynomolgus monkey | oral, 30 mg/kg, 0.5 h post-dose | relative to: pre-dose | systolic blood pressure change | 99.1 ± 3.6%
CN1C(=O)[C@@H](NC(=O)c2nnc(Cc3ccccc3)[nH]2)COc2cccnc21 | phase I single ascending dose | human, male and female | oral, 200 mg, fasted | – | participants with any serious TEAE | 0%
Cc1cc(Nc2ncc(Cl)c(Nc3ccccc3S(=O)(=O)C(C)C)n2)c(OC(C)C)cc1C1CCNCC1 | – | human, plasma | oral, 450 to 600 mg, cycle 2 day 1 | – | AUC(0-24h) increase | 70%
Cc1ccc(CNC(=O)c2cc(/C=C/C(=O)O)cc(-c3ccc4ncnn4c3)c2)cc1 | – | human liver microsomes | 1 µg/mL, 60 min, added: NADPH | – | metabolic stability | stable
CCCCCCCOc1ccc(CCC(N)(CO)CO)cc1C(F)(F)F.Cl | – | healthy men | oral, 0.25 mg, day 1 | – | renal clearance | 0.0112 mL/min
COc1ccc2[nH]c([S+]([O-])Cc3ncc(C)c(OC)c3C)nc2c1 (centres unmarked) | – | healthy Chinese volunteers, plasma | oral, 20 mg, fasted, CYP2C19 poor metabolizers | – | AUC(0-inf) | 4280 ± 1440 ng·h/mL
C=CC(=O)N1C[C@H](n2c(C#CC3CC3)c(C(=O)N[C@H](C)c3ccccc3)c3c(N)ncnc32)C[C@@H]1C | – | BALB/cAJcl-nu/nu male mouse, plasma | oral, 25 mg/kg, repeated dosing 7 days | – | apparent half-life | 0.76 h
C[C@H]1Oc2cc(cnc2N)-c2c(nn(C)c2C#N)CN(C)C(=O)c2ccc(F)cc21 | population PK | normal renal function, plasma | oral, 100 mg, mean, single dose | – | clearance | 164 mL/min

Some of these lines once more:
Structure (SMILES) | test | system | setting | how to read | quantity | value
CC(C)(C)NCC(O)c1ccc(O)c(CO)c1 (centres unmarked) | equilibrium dialysis | rat, lung homogenate | – | – | fraction unbound | 1
N[C@@H]1c2ccccc2OC12CCN(c1cnc3c(N4CCCc5ncccc54)n[nH]c3n1)CC2 | – | advanced metastatic solid tumour patients, plasma | oral, 10 mg once daily, cycle 1 day 15, geometric mean | – | AUC(0-tau) | 1270 ng·h/mL
CCCCCCCOc1ccc(CCC(N)(CO)CO)cc1C(F)(F)F.Cl | – | healthy men | oral, 0.25 mg, day 1 | – | renal clearance | 0.0112 mL/min
CC#CC(=O)N1CC[C@@H](n2c(=O)n(-c3ccc(Oc4ccccc4)cc3)c3c(N)ncnc32)C1 | – | human, fasting, plasma | oral, 480 mg once daily, cycle 1 day 1 | – | AUC(0-24h) | 8500 ± 1700 ng·h/mL
Cc1nc(-c2ccc(OCC(C)C)c(C#N)c2)sc1C(=O)O | – | healthy Chinese subjects | oral, 40 mg | – | dizziness incidence | 2.6%
CCOc1c([C@H](C)n2nc(C)c3c(N)ncnc32)cc(Cl)c(F)c1[C@@H]1CNC(=O)C1 | refers to: QTcF ≤450 ms | previously treated B-cell malignancy | oral, 10 mg once daily, baseline QTcF ≤450 ms | – | ECG observations | 100%
CN(c1ccc(F)cc1)c1c(-c2ccc(F)cn2)nc2ccccn12 | – | peritoneal macrophages, Swiss mice | 5 days, 5% fetal calf serum | – | CC50 | > 63.1 µM
